Measured values collected from several papers.
Compare with care: the assays were run in different laboratories. Numbers after ± are the reported error.
PTH1R: Parathyroid hormone/parathyroid hormone-related peptide receptor (PTH1R, Homo sapiens, UniProt Q03431)
UniProt Q03431, sequence (whole entry, looked up): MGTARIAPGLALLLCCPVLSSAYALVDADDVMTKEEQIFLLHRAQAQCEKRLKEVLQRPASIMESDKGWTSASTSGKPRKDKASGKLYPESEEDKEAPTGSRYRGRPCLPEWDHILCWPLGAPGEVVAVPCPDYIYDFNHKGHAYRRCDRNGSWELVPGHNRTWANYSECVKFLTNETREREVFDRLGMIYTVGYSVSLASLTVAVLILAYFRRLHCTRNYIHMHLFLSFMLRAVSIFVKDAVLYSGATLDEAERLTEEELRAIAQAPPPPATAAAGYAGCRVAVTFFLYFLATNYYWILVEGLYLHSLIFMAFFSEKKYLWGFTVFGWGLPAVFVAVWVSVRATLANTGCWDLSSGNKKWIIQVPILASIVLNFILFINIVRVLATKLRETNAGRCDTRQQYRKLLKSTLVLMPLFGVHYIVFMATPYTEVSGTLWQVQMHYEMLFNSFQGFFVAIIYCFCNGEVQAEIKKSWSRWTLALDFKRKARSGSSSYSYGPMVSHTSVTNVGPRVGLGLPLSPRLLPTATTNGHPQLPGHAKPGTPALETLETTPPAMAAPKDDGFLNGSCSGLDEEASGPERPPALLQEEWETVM
MAPK14: Mitogen-activated protein kinase 14 (MAPK14, Homo sapiens, UniProt Q16539)
UniProt Q16539, sequence (whole entry, looked up): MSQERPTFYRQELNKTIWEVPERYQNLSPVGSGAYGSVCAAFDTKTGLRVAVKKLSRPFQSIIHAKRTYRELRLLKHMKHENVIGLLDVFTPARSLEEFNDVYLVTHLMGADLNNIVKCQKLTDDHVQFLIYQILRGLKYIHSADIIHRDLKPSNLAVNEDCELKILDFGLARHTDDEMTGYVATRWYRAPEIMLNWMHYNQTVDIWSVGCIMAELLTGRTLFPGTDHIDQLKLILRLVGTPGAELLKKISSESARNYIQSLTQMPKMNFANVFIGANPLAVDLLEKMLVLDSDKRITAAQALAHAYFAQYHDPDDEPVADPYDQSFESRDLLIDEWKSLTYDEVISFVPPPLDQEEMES
UniProt P97287, sequence (whole entry, looked up): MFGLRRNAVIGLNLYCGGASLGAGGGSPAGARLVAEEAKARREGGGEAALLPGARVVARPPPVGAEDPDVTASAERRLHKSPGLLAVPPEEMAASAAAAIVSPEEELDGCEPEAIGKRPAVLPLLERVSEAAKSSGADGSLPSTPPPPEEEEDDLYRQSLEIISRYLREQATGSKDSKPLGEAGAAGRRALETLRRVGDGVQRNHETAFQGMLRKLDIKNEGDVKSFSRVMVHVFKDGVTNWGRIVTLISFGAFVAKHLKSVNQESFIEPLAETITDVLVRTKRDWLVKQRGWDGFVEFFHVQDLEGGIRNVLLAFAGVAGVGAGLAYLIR
UniProt Q7XKC8, sequence (whole entry, looked up): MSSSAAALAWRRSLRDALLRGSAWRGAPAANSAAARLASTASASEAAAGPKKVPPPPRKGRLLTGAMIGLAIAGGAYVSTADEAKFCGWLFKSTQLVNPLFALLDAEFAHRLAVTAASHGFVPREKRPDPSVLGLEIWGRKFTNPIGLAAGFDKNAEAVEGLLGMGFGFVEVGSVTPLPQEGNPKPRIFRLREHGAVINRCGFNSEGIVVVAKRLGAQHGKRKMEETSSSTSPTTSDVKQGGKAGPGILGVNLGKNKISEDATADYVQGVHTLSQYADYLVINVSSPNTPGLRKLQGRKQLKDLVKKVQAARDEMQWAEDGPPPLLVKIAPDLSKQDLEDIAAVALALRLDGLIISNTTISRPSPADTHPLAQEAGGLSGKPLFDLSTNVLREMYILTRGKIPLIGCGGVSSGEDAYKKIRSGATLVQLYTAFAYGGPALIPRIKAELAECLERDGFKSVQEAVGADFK
UniProt O77404, sequence (whole entry, looked up): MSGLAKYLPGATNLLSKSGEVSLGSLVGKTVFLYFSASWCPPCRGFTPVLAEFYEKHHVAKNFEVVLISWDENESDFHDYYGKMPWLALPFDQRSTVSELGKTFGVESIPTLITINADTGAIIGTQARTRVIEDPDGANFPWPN
UniProt P27348, sequence (whole entry, looked up): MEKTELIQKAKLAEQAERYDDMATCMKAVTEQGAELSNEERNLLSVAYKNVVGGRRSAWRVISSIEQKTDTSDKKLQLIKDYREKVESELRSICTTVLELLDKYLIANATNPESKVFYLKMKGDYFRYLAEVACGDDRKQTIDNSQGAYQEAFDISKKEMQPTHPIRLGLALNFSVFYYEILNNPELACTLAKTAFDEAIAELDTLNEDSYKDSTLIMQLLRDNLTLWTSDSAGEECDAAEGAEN
UniProt P41148, sequence (whole entry, looked up): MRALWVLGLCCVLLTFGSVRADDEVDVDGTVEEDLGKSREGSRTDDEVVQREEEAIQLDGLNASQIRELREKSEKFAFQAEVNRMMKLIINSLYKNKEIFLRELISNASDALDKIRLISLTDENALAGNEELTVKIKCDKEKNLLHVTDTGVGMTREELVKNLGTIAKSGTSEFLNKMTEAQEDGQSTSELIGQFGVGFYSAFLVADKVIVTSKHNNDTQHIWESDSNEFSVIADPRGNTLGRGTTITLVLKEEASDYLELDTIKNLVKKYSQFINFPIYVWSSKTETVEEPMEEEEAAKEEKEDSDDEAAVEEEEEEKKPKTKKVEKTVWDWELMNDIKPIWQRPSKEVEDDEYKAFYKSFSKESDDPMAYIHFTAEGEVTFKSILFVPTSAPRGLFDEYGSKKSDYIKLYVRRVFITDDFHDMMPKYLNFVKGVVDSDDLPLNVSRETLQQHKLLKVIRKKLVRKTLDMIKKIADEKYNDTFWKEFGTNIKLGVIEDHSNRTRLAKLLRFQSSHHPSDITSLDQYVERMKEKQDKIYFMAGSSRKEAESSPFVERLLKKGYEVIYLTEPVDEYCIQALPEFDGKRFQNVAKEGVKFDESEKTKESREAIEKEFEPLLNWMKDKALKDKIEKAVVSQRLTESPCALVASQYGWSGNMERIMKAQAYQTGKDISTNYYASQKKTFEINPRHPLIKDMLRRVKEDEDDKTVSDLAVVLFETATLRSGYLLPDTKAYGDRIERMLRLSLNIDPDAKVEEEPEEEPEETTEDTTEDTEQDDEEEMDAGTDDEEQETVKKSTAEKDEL
UniProt Q16881, sequence (whole entry, looked up): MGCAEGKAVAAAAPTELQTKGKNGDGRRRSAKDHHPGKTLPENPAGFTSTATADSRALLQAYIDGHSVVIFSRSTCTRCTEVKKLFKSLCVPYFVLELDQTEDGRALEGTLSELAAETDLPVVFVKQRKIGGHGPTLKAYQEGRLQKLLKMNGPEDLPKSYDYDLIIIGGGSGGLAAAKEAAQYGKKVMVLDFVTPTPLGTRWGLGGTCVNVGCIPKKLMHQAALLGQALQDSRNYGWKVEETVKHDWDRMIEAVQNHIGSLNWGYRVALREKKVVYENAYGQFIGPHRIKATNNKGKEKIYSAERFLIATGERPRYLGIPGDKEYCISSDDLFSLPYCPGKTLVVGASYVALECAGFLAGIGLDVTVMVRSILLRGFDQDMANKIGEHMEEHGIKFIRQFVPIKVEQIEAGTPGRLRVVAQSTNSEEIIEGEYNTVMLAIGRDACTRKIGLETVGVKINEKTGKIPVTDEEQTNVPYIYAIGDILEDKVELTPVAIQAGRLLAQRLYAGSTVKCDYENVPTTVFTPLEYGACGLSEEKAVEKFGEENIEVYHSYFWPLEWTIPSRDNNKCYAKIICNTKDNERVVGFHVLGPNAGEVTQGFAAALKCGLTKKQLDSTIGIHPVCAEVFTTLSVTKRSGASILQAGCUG
UniProt C0HJB3, sequence (whole entry, looked up): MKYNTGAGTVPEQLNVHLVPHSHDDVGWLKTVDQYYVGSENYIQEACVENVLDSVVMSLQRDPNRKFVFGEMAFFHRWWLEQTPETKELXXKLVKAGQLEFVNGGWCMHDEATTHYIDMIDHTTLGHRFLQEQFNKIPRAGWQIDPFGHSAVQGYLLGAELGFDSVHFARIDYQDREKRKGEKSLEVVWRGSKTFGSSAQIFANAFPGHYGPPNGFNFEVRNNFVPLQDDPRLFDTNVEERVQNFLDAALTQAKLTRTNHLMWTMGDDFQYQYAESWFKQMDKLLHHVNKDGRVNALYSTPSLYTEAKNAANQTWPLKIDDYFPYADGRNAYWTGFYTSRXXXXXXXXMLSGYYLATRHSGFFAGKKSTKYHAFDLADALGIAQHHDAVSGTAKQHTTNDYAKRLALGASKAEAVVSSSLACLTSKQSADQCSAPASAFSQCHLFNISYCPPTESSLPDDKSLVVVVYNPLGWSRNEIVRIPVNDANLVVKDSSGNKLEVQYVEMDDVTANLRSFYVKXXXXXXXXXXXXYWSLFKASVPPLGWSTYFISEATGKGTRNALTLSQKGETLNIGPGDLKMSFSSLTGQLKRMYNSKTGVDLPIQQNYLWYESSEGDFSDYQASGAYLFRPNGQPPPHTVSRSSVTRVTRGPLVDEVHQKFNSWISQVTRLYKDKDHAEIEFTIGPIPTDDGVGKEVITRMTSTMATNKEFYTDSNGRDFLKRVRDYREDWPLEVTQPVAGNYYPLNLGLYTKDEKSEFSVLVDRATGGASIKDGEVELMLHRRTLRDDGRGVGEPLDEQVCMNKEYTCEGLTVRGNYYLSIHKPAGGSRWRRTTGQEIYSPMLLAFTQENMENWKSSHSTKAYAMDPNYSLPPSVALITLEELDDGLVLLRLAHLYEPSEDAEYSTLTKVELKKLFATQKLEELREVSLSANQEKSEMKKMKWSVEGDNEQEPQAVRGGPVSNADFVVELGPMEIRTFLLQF
UniProt O75874, sequence (whole entry, unmodified, looked up): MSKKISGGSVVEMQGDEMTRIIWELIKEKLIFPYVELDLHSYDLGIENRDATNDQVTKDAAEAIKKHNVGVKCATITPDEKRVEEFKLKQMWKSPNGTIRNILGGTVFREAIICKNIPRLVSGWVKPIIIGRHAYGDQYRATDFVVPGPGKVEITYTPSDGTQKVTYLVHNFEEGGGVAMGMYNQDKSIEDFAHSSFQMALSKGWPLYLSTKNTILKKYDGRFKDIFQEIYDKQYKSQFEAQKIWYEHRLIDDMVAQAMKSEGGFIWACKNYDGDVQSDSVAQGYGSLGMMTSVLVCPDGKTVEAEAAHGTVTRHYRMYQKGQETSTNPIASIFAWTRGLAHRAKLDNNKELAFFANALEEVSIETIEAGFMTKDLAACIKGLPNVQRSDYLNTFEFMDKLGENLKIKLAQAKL

| Structure (SMILES) | target | test | test system | setting | Kd [µM] |
| --- | --- | --- | --- | --- | --- |
| COc1cc2c(cc1-c1c(C)noc1C)ncc1[nH]c(=O)n([C@H](C)c3ccccn3)c12 | Bromodomain factor 3 (Trypanosoma brucei brucei, UniProt Q383S2) | ITC | – | 15 °C | 68 ± 9 |
| CSCC[C@H](NC(=O)[C@H](CO)NC(=O)[C@H](CC(N)=O)NC(=O)[C@H](CC(C)C)NC(=O)[C@H](CO)NC(=O)[C@H](CCCCN)NC(=O)CNC(=O)[C@H](CCCCN)NC(=O)[C@H](CC(=O)O)NC(=O)[C@H](Cc1c[nH]cn1)NC(=O)[C@H](CC(C)C)NC(=O)[C@H](CC(C)C)NC(=O)[C@H](CCC(N)=O)NC(=O)[C@H](Cc1c[nH]cn1)NC(=O)[C@H](CCC(=O)O)NC(=O)[C@H](CO)NC(=O)[C@@H](NC(=O)[C@H](C)N)C(C)C)C(=O)N[C@@H](CCC(=O)O)C(=O)N[C@@H](CCCNC(=N)N)C(=O)N[C@H](C(=O)N[C@@H](CCC(=O)O)C(=O)N[C@@H](Cc1c[nH]c2ccccc12)C(=O)N[C@@H](CC(C)C)C(=O)N[C@@H](CCCNC(=N)N)C(=O)N[C@@H](CCCCN)C(=O)N[C@@H](CCCCN)C(=O)N[C@@H](CC(C)C)C(=O)N[C@@H](CCC(N)=O)C(=O)N[C@@H](CC(=O)O)C(=O)N[C@H](C(=O)N[C@@H](Cc1c[nH]cn1)C(=O)N[C@@H](CC(N)=O)C(=O)N[C@@H](Cc1ccccc1)C(=O)N[C@@H](CCCCNC(=O)c1ccc2c(c1)C1(OC2=O)c2ccc(N(C)C)cc2Oc2cc(N(C)C)ccc21)C(N)=O)C(C)C)C(C)C | PTH1R | binding, NanoBRET | – | 0.02% sodium azide | 0.063 ± 0.02 |
| CN1C[C@H](c2cccc(C(F)(F)F)c2)[C@@H](C(=O)Nc2ccccc2F)C1=O | PYRD (Oryza sativa, UniProt Q7XKC8) | surface plasmon resonance | – | – | 0.025 ± 0.008 |
| Oc1cc(-c2ccccc2Cl)[nH]n1 | MAPK14 | binding, SPR | – | – | 1590 |
| C=CCc1cc(CC2CN(Cc3ccccc3)CC(Cc3ccc(O)c(CC=C)c3)C2=O)ccc1O (stereo not drawn) | TXNRD1 (Homo sapiens, UniProt Q16881) | binding, SPR | – | – | 12.2 |
| O=c1[nH]c(CCl)nc2scc(-c3ccc(C(F)(F)F)cc3)c12 | Tryparedoxin (Trypanosoma brucei brucei, UniProt O77404) | inhibitor-induced homodimer dissociation, dilution ITC | – | – | 410 ± 56 |
| CC[C@H](C)[C@H](NC(=O)[C@H](CC(=O)O)NC(=O)[C@H](Cc1ccccc1)NC(=O)[C@@H](NC(=O)[C@H](C)NC(=O)[C@H](CC(=O)O)NC(=O)[C@H](CC(=O)O)NC(=O)CCNC(=O)CCNC(=O)CCCC[C@@H]1SC[C@@H]2NC(=O)N[C@@H]21)C(C)C)C(=O)N[C@H](C(=O)N[C@H](C(=O)N[C@@H](CC(=O)O)C(=O)N[C@@H](CCC(=O)O)C(=O)N[C@@H](CCC(=O)O)C(=O)N[C@@H](CC(C)C)C(=O)N[C@@H](Cc1c[nH]c2ccccc12)C(N)=O)[C@@H](C)O)[C@@H](C)CC | Microtubule-associated protein 1 light chain 3 beta (Homo sapiens, UniProt Q9GZQ8) | binding, BLI | – | pH 7.4 | 3.1 |
| O=C(O)COc1ccc(-c2ccccc2O)cc1Cl | Nuclear factor erythroid 2-related factor 2, Neh1 domain (NFE2L2, Homo sapiens, UniProt Q16236) | binding, NMR chemical shift perturbation | – | – | 1500 ± 100 |
| CC(C)C[C@H](NC(=O)[C@H](CCCNC(=N)N)NC(=O)[C@H](C)N)C(=O)N[C@@H](Cc1ccc(O)cc1)C(=O)N[C@@H](Cc1c[nH]cn1)C(=O)N[C@@H](COP(=O)(O)O)C(=O)N[C@@H](CC(C)C)C(=O)N[C@@H](CC(C)C)C(=O)N1CCC[C@H]1C(=O)N[C@@H](C)C(=O)N[C@@H](C)C(=O)O | 14-3-3 protein theta (Homo sapiens, UniProt P27348) | binding, fluorescence anisotropy | – | pH 7.2, 20 °C, added: fluorescein-labelled p53 C-terminal peptide 50 nM | 0.24 ± 0.02 |
| CCCN(CC(=O)N(CCC)CC(=O)N(CCC)CC(=O)N(CCC)CC(=O)N(CC(=O)N(CCC)CC(=O)N(CCC)CC(=O)N(CCC)CC(=O)N(CCC)CC(=O)N(CC(N)=O)Cc1cn(CCCNC(=O)CCCOc2cccc(-c3nc4ccc(-c5nc6ccc(N7CCN(C)CC7)cc6[nH]5)cc4[nH]3)c2)nn1)Cc1cn(CCCNC(=O)CCCOc2cccc(-c3nc4ccc(-c5nc6ccc(N7CCN(C)CC7)cc6[nH]5)cc4[nH]3)c2)nn1)C(=O)CNCc1cn(CCCNC(=O)CCCOc2cccc(-c3nc4ccc(-c5nc6ccc(N7CCN(C)CC7)cc6[nH]5)cc4[nH]3)c2)nn1 | herring sperm DNA | binding, fluorescence | – | – | 0.43 ± 0.017 |
| CC[C@H](C)[C@H](NC(=O)[C@H](CC(C)C)NC(=O)[C@H](Cc1ccccc1)NC(=O)[C@@H](NC(=O)[C@H](C)NC(=O)c1ccc2c(c1)C(=O)OC21c2ccc(O)cc2Oc2cc(O)ccc21)[C@@H](C)O)C(=O)N[C@@H](CCC(N)=O)C(=O)N[C@@H](CCC(=O)O)C(=O)N[C@@H](Cc1ccc(O)cc1)C(=O)N[C@@H](Cc1ccccc1)C(=O)N[C@@H](CCCNC(=N)N)C(=O)N[C@@H](CCCCN)C(=O)N[C@@H](Cc1ccccc1)C(=O)N[C@@H](CCCCN)C(=O)N[C@@H](CCCCN)C(=O)N[C@@H](CCCNC(=N)N)C(=O)N[C@@H](CCCCN)C(=O)N[C@@H](CCC(=O)O)C(=O)N[C@@H](CCC(N)=O)C(=O)NCC(=O)N[C@@H](CC(C)C)C(=O)N[C@H](C(=O)NCC(=O)N[C@@H](CCCCN)C(=O)N1CCC[C@H]1C(=O)N[C@@H](CO)C(=O)N[C@@H](CCC(N)=O)C(=O)O)C(C)C | Calmodulin-1 (Calm1, Rattus norvegicus, UniProt P0DP29) | binding, fluorescence anisotropy | – | pH 7.4, 22 °C, added: free Ca2+ 146 nM | 2.53 |
| C[n+]1cc(NC(=O)c2ccc3ccc4ccc(C(=O)Nc5cc6ccccc6[n+](C)c5)nc4c3n2)cc2ccccc21 | telomeric G4 DNA hybrid-1 | binding, native ESI-MS | 100 mM trimethylammonium acetate | 1 mM KCl | 0.022 |
| O=C(O)c1csc(C2COc3ccccc3O2)n1 (stereo not drawn) | Induced myeloid leukemia cell differentiation protein Mcl-1 homolog (Mus musculus, UniProt P97287) | binding, NMR | – | – | 280 |
| CC1=CC(=O)CC(C)(C)C1(O)C=CC(C)O (stereo not drawn) | Alpha-mannosidase (Canavalia ensiformis, UniProt C0HJB3) | binding, surface plasmon resonance | – | 25 °C | 926 |
| Nc1ccn([C@@H]2O[C@H](COP(=O)(O)OP(=O)(O)O)[C@@H](O)[C@H]2O)c(=O)n1 | type 1 ribosome-inactivating protein (Momordica balsamina, UniProt D9J2T9) | intrinsic fluorescence quenching | – | pH 6.8, 298 K | ~0.28 |
| O=P(O)(O)O[C@@H]1[C@@H](O)[C@H](O)[C@H](O)[C@H](O)[C@H]1OP(=O)(O)O | Inositol 1,4,5-trisphosphate-gated calcium channel ITPR1, N-terminal region (Itpr1, Rattus norvegicus, UniProt P29994, del318-332) | [3H]IP3 competition binding | – | N-terminal fragment | 0.641 |
| O=C(O)C(CO)NCc1cc(Cl)c(OCc2cccc(-c3ccccc3)c2Br)cc1OCc1cccnc1 (stereo not drawn) | Programmed cell death ligand 1 (Rattus norvegicus, UniProt D4AE25) | binding, surface plasmon resonance | – | – | 0.0277 |
| CC[C@H](C)[C@@H]1NC(=O)[C@H](Cc2ccc(OC)cc2)NC(=O)CC2(CCCCC2)SSC[C@@H](C(=O)N2CCC[C@H]2C(=O)N[C@@H](CCCN)C(=O)N[C@@H](Cc2ccc(O)c(I)c2)C(N)=O)NC(=O)[C@H](CC(N)=O)NC(=O)[C@H]([C@@H](C)O)NC1=O | AVPR1A (Homo sapiens, UniProt P37288) | binding, radioligand | – | cell membranes | 0.00036 |
| CN1CCN(C)[C@H](CCN2CC[C@H](c3ccc(F)cc3)C2)C1 | IDH1 (Homo sapiens, UniProt O75874, R132H) | – | – | – | 14.1 |
| N=C(N)c1ccc(-c2ccc(-c3nc4ccc(C(=N)N)cc4[nH]3)[se]2)cc1 | λB site DNA hairpin | binding, surface plasmon resonance | – | – | 0.03 |
| Cc1cn([C@@H]2C[C@@H](O)[C@H](COP(=O)(O)O)O2)c(=O)[nH]c1=O | Thymidylate kinase (DTYMK, Homo sapiens, UniProt P23919) | fluorescence competition | – | added: MABA-dTDP | 45 |
| COC(=O)c1c(O)cc(O)c(Cl)c1CCc1ccccc1Cc1ccccc1OC | Endoplasmin (HSP90B1, Canis lupus familiaris, UniProt P41148) | ligand displacement, FP | – | – | 7.8 |
| O=c1c2ccccc2ncn1-c1ccccc1F | MAPK14 | binding, SPR | – | – | 780 |
| CC[C@H](C)[C@H](NC(=O)[C@H](CCC(=O)O)NC(=O)[C@@H](N)CO)C(=O)N[C@@H](CCC(N)=O)C(=O)N[C@@H](CC(C)C)C(=O)N[C@@H](CCSC)C(=O)N[C@@H](Cc1c[nH]cn1)C(=O)N[C@@H](CC(N)=O)C(=O)N[C@@H](CC(C)C)C(=O)NCC(=O)N[C@@H](CCCCN)C(=O)N[C@@H](Cc1c[nH]cn1)C(=O)N[C@@H](CC(C)C)C(=O)N[C@@H](CC(N)=O)C(=O)N[C@@H](CO)C(=O)N[C@@H](CCSC)C(=O)N[C@@H](CCC(=O)O)C(=O)N[C@@H](CCCNC(=N)N)C(=O)N[C@H](C(=O)N[C@@H](CCC(=O)O)C(=O)N[C@@H](Cc1c[nH]c2ccccc12)C(=O)N[C@@H](CC(C)C)C(=O)N[C@@H](CCCNC(=N)N)C(=O)N[C@@H](CCCCN)C(=O)N[C@@H](CCCCN)C(=O)N[C@@H](CC(C)C)C(=O)N[C@@H](CCC(N)=O)C(=O)N[C@@H](CC(=O)O)C(=O)N[C@H](C(=O)N[C@@H](Cc1c[nH]cn1)C(=O)N[C@@H](CC(N)=O)C(=O)N[C@@H](Cc1ccccc1)C(=O)N[C@@H](CCCCNC(=O)c1ccc2c(c1)C1(OC2=O)c2ccc(N(C)C)cc2Oc2cc(N(C)C)ccc21)C(N)=O)C(C)C)C(C)C | PTH1R | binding, NanoBRET | – | 0.02% sodium azide | 0.027 ± 0.012 |

Excerpt of the above:
| Structure (SMILES) | target | test | test system | setting | Kd [µM] |
| --- | --- | --- | --- | --- | --- |
| Cc1cn([C@@H]2C[C@@H](O)[C@H](COP(=O)(O)O)O2)c(=O)[nH]c1=O | Thymidylate kinase (DTYMK, Homo sapiens, UniProt P23919) | fluorescence competition | – | added: MABA-dTDP | 45 |
| COC(=O)c1c(O)cc(O)c(Cl)c1CCc1ccccc1Cc1ccccc1OC | Endoplasmin (HSP90B1, Canis lupus familiaris, UniProt P41148) | ligand displacement, FP | – | – | 7.8 |
